Published values of several laboratories.
“And” joins repeats or separate records; there may be more than shown. ± gives the spread as reported.
APP amyloid-beta 1-40 oligomers: Amyloid-beta precursor protein, amyloid-beta 1-40 oligomers (APP, Homo sapiens, UniProt P05067)
lecA: PA-I galactophilic lectin (lecA, Pseudomonas aeruginosa, UniProt Q05097)
KLRK1: NKG2-D type II integral membrane protein (KLRK1, Homo sapiens, UniProt P26718)
Sequence of UniProt P26718 (whole entry, looked up): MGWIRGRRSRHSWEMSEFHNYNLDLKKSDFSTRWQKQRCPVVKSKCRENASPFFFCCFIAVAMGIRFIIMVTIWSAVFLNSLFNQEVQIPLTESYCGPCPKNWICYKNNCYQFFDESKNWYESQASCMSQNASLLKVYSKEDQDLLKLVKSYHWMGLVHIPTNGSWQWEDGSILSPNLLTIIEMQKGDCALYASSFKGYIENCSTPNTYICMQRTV
lasR: Transcriptional activator protein LasR (lasR, Pseudomonas aeruginosa, UniProt P25084)
Sequence of UniProt P61073 (whole entry, unmodified, looked up): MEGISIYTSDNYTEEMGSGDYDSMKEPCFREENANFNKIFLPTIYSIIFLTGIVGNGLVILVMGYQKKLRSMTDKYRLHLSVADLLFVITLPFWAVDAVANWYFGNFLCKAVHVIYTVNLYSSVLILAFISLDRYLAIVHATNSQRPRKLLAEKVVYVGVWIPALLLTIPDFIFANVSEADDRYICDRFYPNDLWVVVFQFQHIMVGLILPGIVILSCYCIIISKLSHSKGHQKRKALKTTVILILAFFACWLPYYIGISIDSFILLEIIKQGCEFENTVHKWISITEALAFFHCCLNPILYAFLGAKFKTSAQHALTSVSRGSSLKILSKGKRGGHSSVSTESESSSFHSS
Sequence of UniProt O43526 (whole entry, looked up): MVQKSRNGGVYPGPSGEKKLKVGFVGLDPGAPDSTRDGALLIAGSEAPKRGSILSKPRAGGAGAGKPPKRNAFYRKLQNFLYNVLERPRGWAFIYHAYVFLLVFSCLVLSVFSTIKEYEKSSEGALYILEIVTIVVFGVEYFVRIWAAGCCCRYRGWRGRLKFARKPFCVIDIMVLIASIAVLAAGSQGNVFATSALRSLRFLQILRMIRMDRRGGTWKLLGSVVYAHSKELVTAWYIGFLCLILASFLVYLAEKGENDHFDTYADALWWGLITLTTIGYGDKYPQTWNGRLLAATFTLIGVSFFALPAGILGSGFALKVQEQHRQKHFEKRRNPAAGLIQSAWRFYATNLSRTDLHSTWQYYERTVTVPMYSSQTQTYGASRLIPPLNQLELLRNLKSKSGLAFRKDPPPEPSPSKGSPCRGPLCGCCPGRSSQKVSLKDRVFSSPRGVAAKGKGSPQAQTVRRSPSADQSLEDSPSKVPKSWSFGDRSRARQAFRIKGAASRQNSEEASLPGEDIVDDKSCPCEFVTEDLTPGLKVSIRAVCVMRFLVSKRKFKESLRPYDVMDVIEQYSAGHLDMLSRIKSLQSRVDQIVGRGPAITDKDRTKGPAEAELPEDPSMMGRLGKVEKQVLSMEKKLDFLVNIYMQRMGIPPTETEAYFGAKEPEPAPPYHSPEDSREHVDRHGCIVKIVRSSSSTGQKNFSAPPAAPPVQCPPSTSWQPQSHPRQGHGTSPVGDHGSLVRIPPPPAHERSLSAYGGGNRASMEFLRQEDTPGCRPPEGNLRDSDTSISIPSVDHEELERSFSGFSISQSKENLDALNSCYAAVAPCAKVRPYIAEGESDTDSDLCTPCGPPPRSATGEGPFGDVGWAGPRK
Sequence of UniProt O43525 (whole entry, looked up): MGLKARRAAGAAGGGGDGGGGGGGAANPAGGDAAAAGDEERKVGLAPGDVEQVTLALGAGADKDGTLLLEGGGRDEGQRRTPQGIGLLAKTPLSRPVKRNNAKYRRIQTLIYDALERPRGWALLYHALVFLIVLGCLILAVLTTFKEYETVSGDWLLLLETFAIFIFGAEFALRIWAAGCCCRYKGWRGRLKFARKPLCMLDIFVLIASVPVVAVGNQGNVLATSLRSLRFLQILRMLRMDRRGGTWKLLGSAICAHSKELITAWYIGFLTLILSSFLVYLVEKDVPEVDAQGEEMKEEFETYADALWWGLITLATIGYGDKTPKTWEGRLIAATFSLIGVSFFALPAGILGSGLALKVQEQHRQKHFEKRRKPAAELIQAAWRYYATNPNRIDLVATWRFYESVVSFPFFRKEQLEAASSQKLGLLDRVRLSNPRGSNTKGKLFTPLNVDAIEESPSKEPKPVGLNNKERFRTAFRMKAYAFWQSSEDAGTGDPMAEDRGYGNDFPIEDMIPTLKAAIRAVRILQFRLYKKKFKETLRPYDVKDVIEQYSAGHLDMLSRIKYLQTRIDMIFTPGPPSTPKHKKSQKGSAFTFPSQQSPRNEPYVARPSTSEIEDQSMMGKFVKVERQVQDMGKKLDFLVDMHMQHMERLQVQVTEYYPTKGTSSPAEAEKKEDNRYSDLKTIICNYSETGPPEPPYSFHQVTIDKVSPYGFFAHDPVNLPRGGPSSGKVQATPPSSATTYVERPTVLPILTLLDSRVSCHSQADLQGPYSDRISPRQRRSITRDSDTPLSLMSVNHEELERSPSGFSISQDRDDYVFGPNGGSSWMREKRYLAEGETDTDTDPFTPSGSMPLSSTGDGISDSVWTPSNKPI
Sequence of UniProt O00257 (whole entry, looked up): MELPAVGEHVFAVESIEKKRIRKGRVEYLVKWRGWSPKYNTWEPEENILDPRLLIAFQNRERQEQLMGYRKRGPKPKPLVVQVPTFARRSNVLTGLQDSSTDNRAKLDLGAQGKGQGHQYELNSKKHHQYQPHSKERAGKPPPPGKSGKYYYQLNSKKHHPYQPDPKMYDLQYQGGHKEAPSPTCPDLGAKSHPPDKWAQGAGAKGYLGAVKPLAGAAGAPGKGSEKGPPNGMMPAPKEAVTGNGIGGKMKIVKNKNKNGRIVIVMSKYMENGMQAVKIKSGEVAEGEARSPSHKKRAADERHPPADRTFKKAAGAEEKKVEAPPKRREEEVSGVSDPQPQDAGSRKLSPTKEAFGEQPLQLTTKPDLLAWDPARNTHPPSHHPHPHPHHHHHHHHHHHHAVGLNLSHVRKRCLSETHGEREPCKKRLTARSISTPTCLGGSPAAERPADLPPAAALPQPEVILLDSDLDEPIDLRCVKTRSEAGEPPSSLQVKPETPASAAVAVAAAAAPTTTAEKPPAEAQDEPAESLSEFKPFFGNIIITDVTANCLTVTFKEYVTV
Sequence of UniProt Q6TCG5 (whole entry, looked up): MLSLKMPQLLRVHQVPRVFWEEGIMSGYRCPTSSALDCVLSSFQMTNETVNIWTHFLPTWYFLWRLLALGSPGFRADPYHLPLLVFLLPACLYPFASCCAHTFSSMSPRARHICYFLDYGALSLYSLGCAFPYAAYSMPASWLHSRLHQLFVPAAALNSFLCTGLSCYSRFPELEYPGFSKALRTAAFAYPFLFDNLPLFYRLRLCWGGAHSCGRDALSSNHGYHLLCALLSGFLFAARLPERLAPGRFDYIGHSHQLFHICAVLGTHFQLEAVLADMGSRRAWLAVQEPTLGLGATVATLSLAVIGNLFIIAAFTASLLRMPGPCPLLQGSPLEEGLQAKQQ
Sequence of UniProt P30559 (whole entry, looked up): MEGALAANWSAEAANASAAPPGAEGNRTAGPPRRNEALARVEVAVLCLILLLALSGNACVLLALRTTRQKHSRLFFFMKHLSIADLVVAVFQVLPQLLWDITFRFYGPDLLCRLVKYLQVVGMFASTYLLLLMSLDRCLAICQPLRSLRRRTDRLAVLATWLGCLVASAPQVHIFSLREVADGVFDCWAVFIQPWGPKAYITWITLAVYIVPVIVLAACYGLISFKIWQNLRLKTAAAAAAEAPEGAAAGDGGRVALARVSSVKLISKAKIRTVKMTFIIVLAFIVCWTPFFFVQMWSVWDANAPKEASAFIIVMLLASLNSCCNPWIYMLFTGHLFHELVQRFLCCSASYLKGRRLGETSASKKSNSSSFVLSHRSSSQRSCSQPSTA
Sequence of UniProt Q02750 (whole entry, looked up): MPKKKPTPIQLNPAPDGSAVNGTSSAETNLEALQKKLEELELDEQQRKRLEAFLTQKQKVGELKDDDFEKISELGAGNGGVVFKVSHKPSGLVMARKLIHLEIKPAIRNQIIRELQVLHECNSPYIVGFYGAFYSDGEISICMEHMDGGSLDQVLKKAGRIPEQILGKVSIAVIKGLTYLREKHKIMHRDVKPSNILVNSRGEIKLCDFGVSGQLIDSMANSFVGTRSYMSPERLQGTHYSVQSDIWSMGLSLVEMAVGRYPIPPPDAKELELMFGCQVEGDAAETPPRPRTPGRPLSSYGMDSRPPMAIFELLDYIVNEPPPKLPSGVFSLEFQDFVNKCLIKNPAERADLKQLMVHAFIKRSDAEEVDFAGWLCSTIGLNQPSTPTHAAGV
Sequence of UniProt Q01827 (whole entry, looked up): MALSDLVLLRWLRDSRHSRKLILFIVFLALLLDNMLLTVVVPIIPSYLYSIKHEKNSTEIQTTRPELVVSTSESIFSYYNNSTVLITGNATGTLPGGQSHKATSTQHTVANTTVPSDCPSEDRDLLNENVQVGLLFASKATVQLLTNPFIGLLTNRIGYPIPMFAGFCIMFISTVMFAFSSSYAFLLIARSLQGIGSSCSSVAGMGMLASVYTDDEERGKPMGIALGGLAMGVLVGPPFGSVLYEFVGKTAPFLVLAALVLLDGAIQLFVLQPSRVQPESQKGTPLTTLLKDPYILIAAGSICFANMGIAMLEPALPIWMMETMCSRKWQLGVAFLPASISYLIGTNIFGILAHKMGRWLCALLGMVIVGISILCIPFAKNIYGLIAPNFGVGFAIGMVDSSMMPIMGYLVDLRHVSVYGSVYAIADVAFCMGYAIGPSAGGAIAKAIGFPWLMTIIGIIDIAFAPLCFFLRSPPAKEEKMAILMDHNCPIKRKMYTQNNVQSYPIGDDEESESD
Sequence of UniProt Q8C7D2 (whole entry, unmodified, looked up): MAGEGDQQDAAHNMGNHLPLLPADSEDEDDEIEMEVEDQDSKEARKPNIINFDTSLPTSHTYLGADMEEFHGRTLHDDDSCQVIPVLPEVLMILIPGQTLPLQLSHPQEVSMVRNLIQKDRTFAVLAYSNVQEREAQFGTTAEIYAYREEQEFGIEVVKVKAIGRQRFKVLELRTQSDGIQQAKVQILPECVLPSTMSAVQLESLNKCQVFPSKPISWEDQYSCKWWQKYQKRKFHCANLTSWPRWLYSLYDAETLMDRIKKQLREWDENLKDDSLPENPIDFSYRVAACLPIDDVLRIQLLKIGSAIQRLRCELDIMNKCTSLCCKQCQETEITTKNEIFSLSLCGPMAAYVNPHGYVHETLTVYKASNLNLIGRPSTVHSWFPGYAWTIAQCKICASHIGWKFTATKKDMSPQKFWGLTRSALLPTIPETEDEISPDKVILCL

O=C(O)c1cc(Cl)cc(NC(=O)C(F)(F)F)c1 — STD NMR signal (APP amyloid-beta 1-40 oligomers; binding, STD NMR; highest STD): 0.75%
CCN(Cc1ccccc1)C(=O)CCc1nc(CN2CCN(C(=O)Cc3ccc(OC)c(OC)c3)CC2)no1 — inactivation V1/2 (SCN9A (Homo sapiens, UniProt Q15858); sodium current, whole-cell patch clamp; HEK293, stable; 1 µM): -77 ± 7.18 mV
N#CCNC(=O)c1cnccc1C(F)(F)F — enzyme activity (Nicotinamidase (Drosophila melanogaster, UniProt Q9VDU7); GDH-coupled; 100 µM): no effect
CC[C@H](C)[C@H](NC(=O)[C@H](Cc1c[nH]cn1)NC(=O)[C@H](CCCCNC(=O)[C@@H](NC(=O)[C@H](CCCCN)NC(=O)[C@H](Cc1ccccc1)NC(=O)[C@H](CCCCNC(=O)[C@H](CC(C)C)NC(=O)[C@@H]1CCCN1C(=O)[C@H](CCCCN)NC(=O)c1ccc(O[C@@H]2O[C@H](CO)[C@H](O)[C@H](O)[C@H]2O)cc1)NC(=O)[C@H](CC(C)C)NC(=O)[C@@H]1CCCN1C(=O)[C@H](CCCCN)NC(=O)c1ccc(O[C@@H]2O[C@H](CO)[C@H](O)[C@H](O)[C@H]2O)cc1)[C@@H](C)CC)NC(=O)[C@@H](NC(=O)[C@H](CCCCN)NC(=O)[C@H](Cc1ccccc1)NC(=O)[C@H](CCCCNC(=O)[C@H](CC(C)C)NC(=O)[C@@H]1CCCN1C(=O)[C@H](CCCCN)NC(=O)c1ccc(O[C@@H]2O[C@H](CO)[C@H](O)[C@H](O)[C@H]2O)cc1)NC(=O)[C@H](CC(C)C)NC(=O)[C@@H]1CCCN1C(=O)[C@H](CCCCN)NC(=O)c1ccc(O[C@@H]2O[C@H](CO)[C@H](O)[C@H](O)[C@H]2O)cc1)[C@@H](C)CC)C(N)=O — ΔG (lecA; isothermal titration calorimetry; pH 7.5, 25 °C, with: 25 mM CaCl2): -9.4 kcal/mol
CN(C)C(=O)C(NC(=O)c1ccccc1-c1ccc(C(F)(F)F)cc1)c1cccc(C(F)(F)F)c1 (stereo not shown) — association rate constant (KLRK1; binding, SPR): 144 M⁻¹ s⁻¹
C[C@@]1(O)CC[C@H]2[C@H](CC[C@@H]3[C@@H]2CC[C@]2(C)[C@@H](C(=O)Cn4cccn4)CC[C@@H]32)C1 — PKA activation (Membrane progestin receptor delta (Paqr6, Mus musculus, UniProt Q6TCG5); pPKA/PKA immunoblot; MDA-MB-231 expressing Paqr6-GFP; 3 nM, 20 min; baseline: control): 96.9 ± 3.98%
O=C1CCN(CCCC(c2ccc(F)cc2)c2ccc(F)cc2)CC1 — STD NMR signal (APP amyloid-beta 1-40 oligomers; binding, STD NMR; highest STD): 4.31%
CC[C@H](C)[C@@H]1NC(=O)[C@H](Cc2ccc(O)cc2)NC(=O)[C@@H](N)CSSC[C@@H](C(=O)N2CCC[C@H]2C(=O)N[C@@H](CC(C)C)C(=O)NCC(N)=O)NC(=O)[C@H](CC(N)=O)NC(=O)[C@H](CCC(N)=O)NC1=O — Emax (Oxytocin receptor (OXTR, Homo sapiens, UniProt P30559); Ca2+ mobilisation, agonist; CHO cells): 3870 RFU
CN1C(=O)[C@H](Cc2ccccc2)N(C)C(=O)[C@@H]2[C@H]1CCN2Cc1cc(Cl)cc(Cl)c1 — association rate constant (KLRK1; binding, SPR): 764 M⁻¹ s⁻¹
CC[C@H](C)[C@H](NC(=O)[C@H](CCCCN)NC(=O)[C@H](Cc1ccccc1)NC(=O)[C@H](CCCCNC(=O)[C@H](CC(C)C)NC(=O)[C@@H]1CCCN1C(=O)[C@H](CCCCN)NC(=O)c1ccc(O[C@@H]2O[C@H](CO)[C@H](O)[C@H](O)[C@H]2O)cc1)NC(=O)[C@H](CC(C)C)NC(=O)[C@@H]1CCCN1C(=O)[C@H](CCCCN)NC(=O)c1ccc(O[C@@H]2O[C@H](CO)[C@H](O)[C@H](O)[C@H]2O)cc1)C(N)=O — relative potency per galactoside (lecA; binding, isothermal titration calorimetry; divided by galactoside copies; baseline: monovalent galactoside KD over ligand KD): 18 and 20
CC(=O)NC(Cc1ccc(Br)c(Cl)c1)C(=O)N[C@@H](C)C(=O)N1CCC[C@H]1C(=O)N1CCC[C@H]1C(=O)N[C@@H](CCC(=O)O)C(=O)N[C@@H](Cc1c[nH]cn1)C(=O)N[C@@H](CO)C(=O)N[C@H](C(=O)N[C@@H](C)C(N)=O)[C@@H](C)OP(=O)(O)O (stereo partly shown) — inhibition (MAP2K1 (Homo sapiens, UniProt Q02750); 10 µM): 4.15 ± 0.13%
O=[N+]([O-])c1c(Br)c(Cl)c2cccnc2c1O — affinity ratio (blaNDM-1 (Klebsiella pneumoniae, UniProt C7C422); binding, microscale thermophoresis; baseline: compound over nitroxoline): ~10
CCCCCCc1cn(-c2cccc(C(=O)N[C@H]3CCOC3=O)c2)nn1 — activation (lasR; reporter gene, agonist; Escherichia coli DH5α pJN105L/pSC11; 10 µM; baseline: OdDHL 100 µM): 0%
S=C(N/N=C/c1ccc(OCc2ccccc2)cc1)Nc1ccccc1 — remaining activity (MAOA (Homo sapiens, UniProt P21397); enzyme activity, inhibitor, absorbance; 10 µM): 60.3%
C=CC(=O)Nc1cc(-c2nn(C3CCC(N4CCN(C(C)=O)CC4)CC3)c3ncnc(N)c23)ccc1Oc1ccccc1 (stereo not shown) — time to IC50 plateau (ERBB3 (Homo sapiens, UniProt P21860); binding, LanthaScreen FRET): ~3 h
C[C@H](NC(=O)[C@H](Cc1ccccc1)NC(=O)c1ccc(Br)cc1)C(=O)N[C@H](C(=O)N[C@@H](CCCC[N+](C)(C)C)C(=O)N[C@@H](CO)C(N)=O)C1CCCC1 — selectivity ratio (E3 SUMO-protein ligase CBX4 (Homo sapiens, UniProt O00257); competitive fluorescence polarization; baseline: Cbx7 over E3 SUMO-protein ligase CBX4): 3.9 fold
CCCCCCCCCCCCNC(=O)CC(=O)c1ccccc1 — maximum inhibition (lasR; reporter gene, antagonist; Pseudomonas aeruginosa PAO-JP2 GFP reporter; with: 150 nM OdDHL): 91%
CC(C)C[C@@H](N)C(=O)NCC(=O)N[C@H](C)C(=O)N[C@H](CO)C(=O)N[C@H](Cc1c[nH]c2ccccc12)C(=O)N[C@H](Cc1c[nH]cn1)C(=O)N[C@H](CCCNC(=N)N)C(=O)N1CCC[C@@H]1C(=O)N[C@H](CC(=O)O)C(=O)N[C@H](CCCCN)C(=O)N[C@H](CCCCN)C(=O)N[C@H](CCCNC(=N)N)C(=O)NCCCCCC(=O)N[C@@H](CCCCN)C(=O)N[C@@H](CCCNC(=N)N)C(=O)N[C@@H](CCCCN)C(=O)N[C@H](C(=O)N[C@@H](CC(N)=O)C(=O)N[C@@H](CC(N)=O)C(=O)N[C@@H](CC(N)=O)C(=O)N1CCC[C@H]1C(=O)N[C@@H](CCCNC(=N)N)C(=O)N[C@H](C(=O)N[C@@H](CS)C(N)=O)[C@@H](C)O)[C@@H](C)O — binding affinity change (CXCR4 (Homo sapiens, UniProt P61073, W94A); 12G5 antibody binding; 200 nM, mutant W94A; baseline: wild type): decreased
CC(C)C[C@H](NC(=O)CNC(=O)[C@H](CCC(=O)O)NC(=O)[C@H](CCCCN)NC(=O)[C@H](CC(C)C)NC(=O)[C@H](C)NC(=O)[C@H](C)NC(=O)CNC(=O)[C@H](C)NC(=O)[C@H](CCCCN)NC(=O)[C@H](CCC(=O)O)NC(=O)[C@H](CC(C)C)NC(=O)[C@H](CCCCN)NC(=O)[C@H](CCCCN)NC(=O)[C@H](CC(C)C)NC(=O)[C@H](CC(C)C)NC(=O)[C@H](CCCCN)NC(=O)[C@H](Cc1c[nH]c2ccccc12)NC(=O)[C@@H](N)CCCCN)C(=O)N[C@@H](CC(C)C)C(=O)N[C@@H](CCCCN)C(=O)N[C@@H](C)C(=O)NCC(=O)N1CCC[C@H]1C(=O)N[C@@H](C)C(=O)N[C@@H](CC(C)C)C(=O)N[C@@H](C)C(=O)N[C@@H](CC(C)C)C(=O)N[C@@H](CC(C)C)C(=O)NCC(=O)N[C@@H](C)C(=O)N[C@@H](C)C(=O)N[C@@H](C)C(=O)N[C@@H](C)C(=O)N[C@@H](CC(C)C)C(=O)N[C@@H](C)C(=O)N[C@@H](CCCCN)C(N)=O — binding free energy (POPC membrane; membrane binding, stopped-flow FRET; mole fraction units, room temperature): -5.6 kcal/mol
CN1C(CCCc2ccccc2)CCC1CCCc1ccccc1 (stereo not shown) — maximal inhibition (Slc18a2 (Rattus norvegicus, UniProt Q01827); binding; rat whole brain vesicles; with: [3H]dihydrotetrabenazine): 100%
C[C@]1(COC(=O)c2ccc(O)c(O)c2)[C@H](C(=O)O)N2C(=O)/C(=C/c3ccccn3)[C@H]2S1(=O)=O — kinact (Beta-lactamase (ampC, Pseudomonas aeruginosa, UniProt P24735); enzyme activity, inhibitor, absorbance): 0.032 s⁻¹
CN1/C(=C/C=C/C=C/C2=[N+](CCCCCC(=O)NCCCCCCCCN3[C@H]4[C@H](O)[C@@H](O)[C@H](O[C@@H]5OC[C@@H](O)[C@H](O)[C@H]5O)C[C@H]43)c3ccccc3C2(C)C)C(C)(C)c2ccccc21 (stereo partly shown) — kinact (endo-1,4-beta-xylanase (Aspergillus aculeatus, UniProt A0A1L9WG58); covalent inhibitor; pH 5.0, with: 4MU-β-D-xylobioside): 0.000217 s⁻¹
Cn1cc(-c2cccc(CN3CCC4(CC3)COc3c4ccc4c3CN([C@H]3CCC(=O)NC3=O)C4=O)c2)cn1 — degradation (Ikzf2/Crbn (Mus musculus, UniProt P81183+Q8C7D2, I391V); mouse Crbn I391V, spleen; oral, 30 mg/kg single dose, 6 h): 84%
COP(=O)(O)O — relative catalytic efficiency (Alkaline phosphatase PafA (pafA, Elizabethkingia meningoseptica, UniProt Q9KJX5, R164A); Chryseobacterium meningosepticum; pH 8.0; baseline: wild type over mutant kcat/KM): 2000
CN(C)C(=O)[C@@H](NC(=O)c1cnccc1-c1ccc(C(F)(F)F)cc1)c1cccc(C(F)(F)F)c1 — maximum inhibition (NKG2-D type II integral membrane protein, with ULBP6 (KLRK1, Homo sapiens, UniProt P26718); ligand binding, inhibitor, TR-FRET; HEK293 expressing NKG2D and DAP10; with: ULBP6-AF647; baseline: positive control): 102%
N[C@@H](Cc1ccc(C(=O)NCCc2cccc3ccccc23)cc1)C(=O)N1Cc2ccccc2C[C@H]1C(=O)N[C@@H](Cc1ccccc1)C(=O)N[C@@H](Cc1ccccc1)C(=O)O — relative potency (Oprd1 (Mus musculus, UniProt P32300); smooth muscle contraction, agonist; mouse vas deferens; baseline: DPDPE): 2 to 4 fold
O=C(Nc1ccccc1NC(=O)c1cccc(Cl)c1)c1cccc(Cl)c1 — Hill slope (lasR; reporter gene, antagonist; PAO-JP2 plasI-LVAgfp): -3
O=[N+]([O-])c1ccc(OP(=O)(O)O)cc1 — kcat (Alkaline phosphatase PafA (pafA, Elizabethkingia meningoseptica, UniProt Q9KJX5, N100A); substrate; pH 8.0): 0.39 s^–1
CC(C)C[C@@H](N)C(=O)NCC(=O)N[C@H](C)C(=O)N[C@H](CO)C(=O)N[C@H](Cc1c[nH]c2ccccc12)C(=O)N[C@H](Cc1c[nH]cn1)C(=O)N[C@H](CCCNC(=N)N)C(=O)N1CCC[C@@H]1C(=O)N[C@H](CC(=O)O)C(=O)N[C@H](CCCCN)C(=O)N[C@H](CSSC[C@@H](NC(=O)[C@@H](CCCCN)NC(=O)[C@@H](CC(=O)O)NC(=O)[C@H]1CCCN1C(=O)[C@@H](CCCNC(=N)N)NC(=O)[C@@H](Cc1c[nH]cn1)NC(=O)[C@@H](Cc1c[nH]c2ccccc12)NC(=O)[C@@H](CO)NC(=O)[C@@H](C)NC(=O)CNC(=O)[C@H](N)CC(C)C)C(=O)N[C@H](C)C(=O)N[C@H](CC(C)C)C(=O)NCC(=O)N[C@H](Cc1ccc(O)cc1)C(=O)N[C@H](CCC(N)=O)C(=O)N[C@H](CCCCN)C(=O)N[C@H](CCCNC(=N)N)C(=O)N1CCC[C@@H]1C(=O)N[C@H](CC(C)C)C(=O)N1CCC[C@@H]1C(N)=O)C(=O)N[C@H](C)C(=O)N[C@H](CC(C)C)C(=O)NCC(=O)N[C@H](Cc1ccc(O)cc1)C(=O)N[C@H](CCC(N)=O)C(=O)N[C@H](CCCCN)C(=O)N[C@H](CCCNC(=N)N)C(=O)N1CCC[C@@H]1C(=O)N[C@H](CC(C)C)C(=O)N1CCC[C@@H]1C(N)=O — 12G5 antibody binding increase (C-X-C chemokine receptor type 4, N-terminus deleted (2-25) (CXCR4, Homo sapiens, UniProt P61073); 293 cells, stably transfected; 300 nM, with: 12G5 antibody 5 µg/mL; baseline: wild type): 15%
CCCCC/C=C\C/C=C\C/C=C\C/C=C\CCCC(=O)NC(CO)C(=O)O (stereo in doubt) — increase in maximal conductance (Voltage-gated potassium channel, KQT; KCNQ2(Kv7.2)/KCNQ3(Kv7.3) (KCNQ3/KCNQ2, Homo sapiens, UniProt O43525+O43526); GMAX, activator, two-electrode voltage clamp; Xenopus oocytes; 10 µM): ~50% and 53%
O=C(N[C@H]1CCOC1=O)c1ccc(-n2cc(-c3cccc(C(=O)N[C@H]4CCOC4=O)c3)nn2)cc1 — activation (lasR; reporter gene, agonist; Escherichia coli, DH5α pJN105L/pSC11; 100 µM; baseline: OdDHL at same concentration): 1%

Excerpt of the above:
O=C1CCN(CCCC(c2ccc(F)cc2)c2ccc(F)cc2)CC1 — STD NMR signal (APP amyloid-beta 1-40 oligomers; binding, STD NMR; highest STD): 4.31%
CCN(Cc1ccccc1)C(=O)CCc1nc(CN2CCN(C(=O)Cc3ccc(OC)c(OC)c3)CC2)no1 — inactivation V1/2 (SCN9A (Homo sapiens, UniProt Q15858); sodium current, whole-cell patch clamp; HEK293, stable; 1 µM): -77 ± 7.18 mV
O=C(O)c1cc(Cl)cc(NC(=O)C(F)(F)F)c1 — STD NMR signal (APP amyloid-beta 1-40 oligomers; binding, STD NMR; highest STD): 0.75%
CCCCCCc1cn(-c2cccc(C(=O)N[C@H]3CCOC3=O)c2)nn1 — activation (lasR; reporter gene, agonist; Escherichia coli DH5α pJN105L/pSC11; 10 µM; baseline: OdDHL 100 µM): 0%
